Assay results pooled from the literature.
A part holds a random share of what one study measured. Substitutions count along the parent as printed.

Set 1
Target: CCNE1, cyclin fold, Cln2 fusion (human)
Method: yeast growth competition, sequencing
Sample: yeast
Setting: strong parent motif
Baseline: not given
Direction: higher = stronger binding
Parent: RBL1 docking peptide (human); GSAKRRLFGEDPP; partner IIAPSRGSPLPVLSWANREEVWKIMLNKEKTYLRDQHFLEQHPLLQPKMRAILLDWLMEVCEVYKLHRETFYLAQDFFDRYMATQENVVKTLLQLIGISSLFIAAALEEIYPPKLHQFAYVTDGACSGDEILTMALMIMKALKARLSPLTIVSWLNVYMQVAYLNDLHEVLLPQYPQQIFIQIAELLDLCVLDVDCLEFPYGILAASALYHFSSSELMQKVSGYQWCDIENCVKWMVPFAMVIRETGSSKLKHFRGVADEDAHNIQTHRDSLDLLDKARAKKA
Variant	normalised enrichment score
GSAKTRLFGEDPP [R5T]	0.33
GSWKRRLFGEDPP [A3W]	3.69
GSEKRRLFGEDPP [A3E]	2.67
GSHKRRLFGEDPP [A3H]	4.78
GSAKRRLFGEDPH [P13H]	6.83
GSAKVRLFGEDPP [R5V]	0.42
GSAKRKLFGEDPP [R6K]	5.9

Set 2
Target: Interferon regulatory factor 5, full length, phosphomimetic (IRF5, Homo sapiens, UniProt Q13568-2, residues 1-514, K96S/S451D/S453D/S456D/S462D)
Method: protein-binding microarray
Form: double-stranded DNA, one strand shown
Sample: in vitro
Tested at: 250 nM
Setting: 60-bp whole probe
Added: salmon DNA 0.4 mg/ml
Baseline: random background probes
Direction: higher = stronger binding
All sequences stand within: GCCTAGCAC … GTCTTGATTCGCTTGACGCTGCTG
Sequence	log fluorescence
GACGGACTGGGACGGGGGACGTGCTAG	0.478 z-score
TTTGGTATCGGGTTTCGGTTAGTGCTA	9.21 z-score
TCAAATGCCCTTTTGGTACTGTGCTAG	0.341 z-score
TCACTTCTCTAACCTCTCACTGTGCTA	0.527 z-score
GACGGACTGGACTATCGGGGCGTGCTA	0.265 z-score
GACGGTATCGGGTCTGGGGACGTGCTA	1.89 z-score
TCAGTATTATTTATTGTACTGTGCTAG	0.446 z-score
GACGGCATCCTTCTCCTGACGTGCTAG	-0.399 z-score

Set 3
Target: RNA binding protein fox-1 homolog 2, RRM domain, GST-SBP tag (RBFOX2, Homo sapiens, UniProt O43251-10, residues 100-194)
Method: RNA Bind-n-Seq
Form: RNA
Sample: in vitro
Tested at: 365 nM
Setting: natural RNA segment, single round, ends assumed
Baseline: no-protein control
Direction: higher = stronger binding
All sequences stand within: GGGAGUUCUACAGUCCGACGAUC … UGGAAUUCUCGGGUGCCAA
Target sequence (chain): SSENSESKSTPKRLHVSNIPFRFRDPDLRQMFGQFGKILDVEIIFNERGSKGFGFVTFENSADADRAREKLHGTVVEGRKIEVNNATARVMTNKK
Sequence	RBNS enrichment (R)
UCAUGCUUUUGAAGAGCAUCAGUGAUUACUUAGGGUGUAAUAUGUAAAGAUCAGACAUCUCCAAAAACAGAAAAAGUACAAGUAAACAACACACUUUCUCAUGACUUUUA	0.498
AGGUACAUCUUUUUUUCCUUACUGAAAACAAAUAUGGAUUAAUUGCCUCAAAUUUGUAUAAGUGAUUGGCUAGUGAUUCUUGUUUUCAGAAGGGAGAGUGGUAUAGAUAG	0.445
CCUGUCCUCACUUCUCCUUUUUUCAGGUGACUCUCUGCUUGGCUCUUUAUCUUACUCUUCAGCUAAUGAAGUAGCAACAGUGUGUUACUAAUGAUUGCAAUCAUACAGUG	0.47
CCUCUCCCCUGUGACUGCAGCUGCUGAGCCAUAAAGUUGGACCAUAUGACACAAGGCCAAUGGGGACCGGAGUACCAUGGCUCCUGUCCUUGGAUGGUCUCUUGUCCCUG	0.321
UUCUGGUAGCAAAUUAACUUUACAUCCUUUUUCCUACUUGUUAUGGUUGUUUGGACCGAUAAGUGUGCUUAAUCCUGAGGCAAAGUAGUGAAUAUGUUUUAUAUGUUAUG	0.427
UAACUCUGGUAAAGCAUCCUGUGGAGGGAGAGGAGAGCCCAGUCAUUUGCUUAGAUGGUGUUUGUGGGAUCACCUGCAGAUUUAAAGCCUACUCUGCCACAGACUCGAGU	1.03
CUCCACCACAGAACUAGACUUGUUUUUUAAGAAAAUAUAUAUUAUAUAUAGAGAGAAUUGGUCUCGUUUAAACACGCCGAACCUCACCAUAUGGAGCCAGACAUUGGGAC	1.19
CCCUAUUCACAACCAGUGCACAGUUUGACACAGUGGCCUCAGGUUCACAGUGCACCAUGUCACUGUGCUAUCCUACGAAAUCAUUUGUUUCUAAGUUGUGUUUAUUCCUG	0.444

Further values, each from its own experiment
Substance	target	test	test system	setting	how to read	measurement	result
PhoQ, residues 284 288 289 292 302 303 TVTVVA	PhoP, residues 12 14 15 18 19 HLGGL (Escherichia coli, UniProt P23836)	Sort-seq, refers to: YFP reporter	E. coli	PhoQ-PhoP variant library, added: 10 µM Mg2+	baseline: high Mg2+ state, higher = stronger signaling	fold induction	2.34

A few entries again (set 1):
Variant	normalised enrichment score
GSEKRRLFGEDPP [A3E]	2.67
GSAKRKLFGEDPP [R6K]	5.9
